Experimental data from different studies.
Numbered parts are unrelated; each lists some results of a single study. Positions count from the first letter of the parent shown.

Set 1 — method: competition protein-binding microarray; molecule type: double-stranded DNA, one strand shown; sample: in vitro; concentration: 2 µM; together with: Cbf1 competitor, 0.05 µM; direction: higher = stronger binding; constant ends, left off below: … GTCTTGATTCGCTTGACGCTGCTG
Target: Phosphate system positive regulatory protein PHO4, full length, GST-tagged (PHO4, Saccharomyces cerevisiae, UniProt P07270, residues 1-312)
Setting: whole 60-bp probe, lowest competitor level
Target sequence (chain): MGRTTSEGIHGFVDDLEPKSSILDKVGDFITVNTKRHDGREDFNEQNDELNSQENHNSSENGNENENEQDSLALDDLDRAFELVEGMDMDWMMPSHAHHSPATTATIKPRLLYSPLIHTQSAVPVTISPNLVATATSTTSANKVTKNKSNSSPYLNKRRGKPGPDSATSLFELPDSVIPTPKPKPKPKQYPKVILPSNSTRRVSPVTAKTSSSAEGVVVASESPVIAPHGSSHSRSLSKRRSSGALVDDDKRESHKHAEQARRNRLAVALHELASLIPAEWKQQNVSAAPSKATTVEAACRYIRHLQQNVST
Strand | fluorescence intensity
CGCATATTTTACTGTCATGCTTCTGTCAAGAAAAAG | 6520 a.u.
CACTATGAGGATCAACACGTGAAGAGAGCCTTGAAG | 15200 a.u.
TAAGAAGAAAGATCGAACGTGATTGTAATGCTCCAA | 8370 a.u.
CCTCATGGAGATGAGCACATGCTACAACTAATAACG | 12200 a.u.
TTGTTTTATTGCCTTCACGTTTATTAATGCTCAAAC | 8630 a.u.
TTGCTGTCTTCTACCCACGTCATATCAGTGGTATTC | 5200 a.u.
TCCACTGAGATGACTACTGTGACGGGTACCAACGGT | 4080 a.u.
CTAACGAAGGTTTGTCACTCAACTTACAAGCCAAGT | 2850 a.u.
CTAACGAAGGTTTTTCACGTGCCATACAAGCCAAGT | 14900 a.u.
TATATTAGGTCGAGTCACGGGTGGTGTCCCTCAAGC | 5870 a.u.

Set 2 — method: DHFR PCA, deep sequencing; sample: yeast; together with: (+)-ABA 4.8 µM; baseline: wild-type fitted maximum; direction: higher = stronger binding
Target: ABI1, truncated, D143A, DHFR fusion (Arabidopsis thaliana)
Setting: methotrexate growth selection, single substitutions
Starting sequence: PYL1, truncated, DHFR fusion (Arabidopsis thaliana); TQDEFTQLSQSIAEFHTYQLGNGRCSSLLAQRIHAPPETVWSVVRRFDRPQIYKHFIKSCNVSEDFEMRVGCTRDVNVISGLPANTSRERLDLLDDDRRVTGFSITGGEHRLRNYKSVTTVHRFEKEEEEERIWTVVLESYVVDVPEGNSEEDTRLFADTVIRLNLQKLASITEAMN; partner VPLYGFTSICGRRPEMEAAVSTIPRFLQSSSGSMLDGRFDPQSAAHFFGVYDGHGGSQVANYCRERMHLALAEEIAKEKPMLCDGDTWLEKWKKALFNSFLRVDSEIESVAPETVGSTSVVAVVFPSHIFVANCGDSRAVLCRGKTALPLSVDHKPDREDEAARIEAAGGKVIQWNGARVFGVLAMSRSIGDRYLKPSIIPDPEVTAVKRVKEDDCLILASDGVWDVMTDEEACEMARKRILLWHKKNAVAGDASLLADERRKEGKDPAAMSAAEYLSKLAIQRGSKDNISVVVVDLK
Change | relative binding score
A175M | 71.7%
Y53F | 38.2%
G23L | 25.6%
C72P | -6.84%
K58V | 18.3%
T73W | 55.2%
C25E | 9.15%
M68R | 12%
G81W | -2.48%
V121S | 1.29%
S27Q | 38%

Set 3 — target: CCNB2, cyclin fold, Cln2 fusion (human); method: yeast growth competition, sequencing; sample: yeast; setting: weak parent motif; baseline: not given; direction: higher = stronger binding
Starting sequence: DOT1L docking peptide (human); SEAKRRIVFTITT; partner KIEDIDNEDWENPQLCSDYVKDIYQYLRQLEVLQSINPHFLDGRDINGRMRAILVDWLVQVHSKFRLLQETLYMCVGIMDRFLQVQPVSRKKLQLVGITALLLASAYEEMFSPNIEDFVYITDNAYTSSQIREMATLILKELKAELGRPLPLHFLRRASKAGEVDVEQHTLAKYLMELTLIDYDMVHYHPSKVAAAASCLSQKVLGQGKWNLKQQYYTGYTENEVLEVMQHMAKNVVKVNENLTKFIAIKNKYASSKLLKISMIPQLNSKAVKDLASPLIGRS
Change | normalised enrichment score
SAAKRRIVFTITT [E2A] | 0.345
SEAKRRIAFTITT [V8A] | 0.325
SEAKRRAVFTITT [I7A] | 0.0472
SEAKRRIVFTIAT [T12A] | 0.337
SEAKRAIVFTITT [R6A] | -0.0166
AEAKRRIVFTITT [S1A] | 0.609

Further values, each from its own experiment
Substance | target | test | system | conditions | how to read | endpoint | value
PhoQ, residues 284 288 289 292 302 303 TVTVVA | PhoP, residues 12 14 15 18 19 NQGLL (Escherichia coli, UniProt P23836) | Sort-seq, item: YFP reporter | E. coli | PhoQ-PhoP variant library, together with: 10 µM Mg2+ | baseline: high Mg2+ state, higher = stronger signaling | fold induction | 2.54

For quick reference, copied from above (set 3):
Change | normalised enrichment score
SEAKRRAVFTITT [I7A] | 0.0472
SEAKRRIVFTIAT [T12A] | 0.337
